Assay results collected from several papers.
Numbered parts are unrelated; each lists some results of a single study.
UniProt Q7KZI7, sequence (whole entry, looked up): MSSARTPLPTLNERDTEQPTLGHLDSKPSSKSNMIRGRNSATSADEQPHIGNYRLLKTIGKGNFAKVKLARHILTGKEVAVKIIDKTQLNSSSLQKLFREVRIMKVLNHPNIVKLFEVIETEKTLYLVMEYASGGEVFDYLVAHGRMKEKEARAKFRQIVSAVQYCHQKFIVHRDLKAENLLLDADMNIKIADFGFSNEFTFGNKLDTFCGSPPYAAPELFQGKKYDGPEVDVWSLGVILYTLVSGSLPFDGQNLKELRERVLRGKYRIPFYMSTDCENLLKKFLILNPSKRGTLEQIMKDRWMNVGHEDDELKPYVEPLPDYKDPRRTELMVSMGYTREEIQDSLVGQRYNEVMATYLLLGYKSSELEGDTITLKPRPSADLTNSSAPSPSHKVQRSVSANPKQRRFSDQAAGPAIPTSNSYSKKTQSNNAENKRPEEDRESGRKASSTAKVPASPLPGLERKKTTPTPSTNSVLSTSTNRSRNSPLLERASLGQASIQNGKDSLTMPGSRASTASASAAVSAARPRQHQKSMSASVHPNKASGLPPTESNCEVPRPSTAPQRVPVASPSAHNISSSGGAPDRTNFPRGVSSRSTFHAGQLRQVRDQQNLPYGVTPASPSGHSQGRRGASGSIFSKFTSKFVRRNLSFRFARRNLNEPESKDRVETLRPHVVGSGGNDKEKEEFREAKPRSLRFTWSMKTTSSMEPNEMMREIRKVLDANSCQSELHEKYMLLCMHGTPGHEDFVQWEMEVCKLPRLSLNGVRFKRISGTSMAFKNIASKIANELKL
UniProt P50750, sequence (whole entry, looked up): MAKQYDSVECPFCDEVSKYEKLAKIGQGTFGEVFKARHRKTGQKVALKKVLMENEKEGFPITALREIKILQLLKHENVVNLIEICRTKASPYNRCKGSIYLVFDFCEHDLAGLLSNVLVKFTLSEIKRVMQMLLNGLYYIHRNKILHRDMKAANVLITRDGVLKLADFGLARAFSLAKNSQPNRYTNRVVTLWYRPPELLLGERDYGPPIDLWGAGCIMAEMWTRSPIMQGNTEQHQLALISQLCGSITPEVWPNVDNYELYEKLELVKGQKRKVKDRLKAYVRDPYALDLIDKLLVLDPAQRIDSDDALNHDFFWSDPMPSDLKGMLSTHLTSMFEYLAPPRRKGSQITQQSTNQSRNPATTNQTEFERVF
UniProt P31751, sequence (whole entry, looked up): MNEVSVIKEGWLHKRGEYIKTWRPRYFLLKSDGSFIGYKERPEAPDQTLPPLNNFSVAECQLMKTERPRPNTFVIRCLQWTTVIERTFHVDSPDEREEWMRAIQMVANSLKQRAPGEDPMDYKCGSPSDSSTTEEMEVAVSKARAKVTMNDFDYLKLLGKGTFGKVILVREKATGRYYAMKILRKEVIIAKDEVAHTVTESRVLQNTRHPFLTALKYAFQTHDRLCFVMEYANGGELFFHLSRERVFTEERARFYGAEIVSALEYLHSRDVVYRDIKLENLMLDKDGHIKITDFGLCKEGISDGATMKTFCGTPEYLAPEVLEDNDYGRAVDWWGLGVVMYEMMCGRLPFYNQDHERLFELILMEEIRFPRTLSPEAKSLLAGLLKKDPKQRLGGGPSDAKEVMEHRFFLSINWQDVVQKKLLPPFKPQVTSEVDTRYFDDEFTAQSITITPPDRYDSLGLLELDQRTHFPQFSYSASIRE
UniProt Q8WXR4, sequence (whole entry, looked up): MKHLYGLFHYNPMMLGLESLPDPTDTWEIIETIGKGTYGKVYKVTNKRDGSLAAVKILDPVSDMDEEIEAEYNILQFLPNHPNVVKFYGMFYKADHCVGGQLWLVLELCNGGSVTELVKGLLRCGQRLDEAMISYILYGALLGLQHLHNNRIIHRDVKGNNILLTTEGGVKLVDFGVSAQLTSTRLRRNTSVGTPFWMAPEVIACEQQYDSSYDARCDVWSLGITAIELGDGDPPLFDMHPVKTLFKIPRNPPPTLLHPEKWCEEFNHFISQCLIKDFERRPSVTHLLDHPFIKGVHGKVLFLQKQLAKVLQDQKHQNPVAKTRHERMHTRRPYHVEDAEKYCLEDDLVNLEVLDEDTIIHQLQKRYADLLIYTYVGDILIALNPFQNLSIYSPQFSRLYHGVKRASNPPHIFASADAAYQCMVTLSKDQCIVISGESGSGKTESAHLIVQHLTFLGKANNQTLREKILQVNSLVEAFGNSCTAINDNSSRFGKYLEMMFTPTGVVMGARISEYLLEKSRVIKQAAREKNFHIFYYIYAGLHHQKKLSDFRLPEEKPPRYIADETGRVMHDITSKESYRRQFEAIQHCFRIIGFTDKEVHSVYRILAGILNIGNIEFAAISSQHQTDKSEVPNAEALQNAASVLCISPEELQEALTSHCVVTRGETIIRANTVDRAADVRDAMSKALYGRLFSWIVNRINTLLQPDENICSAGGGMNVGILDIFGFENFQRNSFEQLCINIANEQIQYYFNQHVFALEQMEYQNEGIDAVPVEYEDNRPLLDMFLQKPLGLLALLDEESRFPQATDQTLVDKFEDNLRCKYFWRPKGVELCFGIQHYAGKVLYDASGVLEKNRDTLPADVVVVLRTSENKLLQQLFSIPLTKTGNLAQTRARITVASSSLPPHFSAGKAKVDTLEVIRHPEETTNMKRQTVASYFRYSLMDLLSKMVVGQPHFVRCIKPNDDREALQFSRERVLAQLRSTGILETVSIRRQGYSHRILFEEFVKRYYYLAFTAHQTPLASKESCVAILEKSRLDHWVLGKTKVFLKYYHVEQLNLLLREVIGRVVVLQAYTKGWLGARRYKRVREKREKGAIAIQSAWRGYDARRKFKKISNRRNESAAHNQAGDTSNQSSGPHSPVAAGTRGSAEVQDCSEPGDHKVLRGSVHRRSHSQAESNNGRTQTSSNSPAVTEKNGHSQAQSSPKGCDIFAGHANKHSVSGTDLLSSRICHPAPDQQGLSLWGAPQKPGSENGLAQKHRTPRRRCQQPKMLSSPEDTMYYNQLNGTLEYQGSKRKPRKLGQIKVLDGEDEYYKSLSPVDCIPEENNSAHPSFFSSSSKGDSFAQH
UniProt P28482, sequence (whole entry, looked up): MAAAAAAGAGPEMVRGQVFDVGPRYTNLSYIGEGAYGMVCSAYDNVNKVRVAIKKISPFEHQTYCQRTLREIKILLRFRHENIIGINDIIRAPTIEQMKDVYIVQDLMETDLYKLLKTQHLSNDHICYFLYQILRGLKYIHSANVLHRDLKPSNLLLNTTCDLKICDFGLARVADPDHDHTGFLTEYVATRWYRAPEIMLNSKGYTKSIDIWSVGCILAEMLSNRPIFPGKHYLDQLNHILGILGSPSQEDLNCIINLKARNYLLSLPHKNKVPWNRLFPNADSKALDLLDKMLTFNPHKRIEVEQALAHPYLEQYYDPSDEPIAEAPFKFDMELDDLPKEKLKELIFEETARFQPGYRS
UniProt P49761, sequence (whole entry, looked up): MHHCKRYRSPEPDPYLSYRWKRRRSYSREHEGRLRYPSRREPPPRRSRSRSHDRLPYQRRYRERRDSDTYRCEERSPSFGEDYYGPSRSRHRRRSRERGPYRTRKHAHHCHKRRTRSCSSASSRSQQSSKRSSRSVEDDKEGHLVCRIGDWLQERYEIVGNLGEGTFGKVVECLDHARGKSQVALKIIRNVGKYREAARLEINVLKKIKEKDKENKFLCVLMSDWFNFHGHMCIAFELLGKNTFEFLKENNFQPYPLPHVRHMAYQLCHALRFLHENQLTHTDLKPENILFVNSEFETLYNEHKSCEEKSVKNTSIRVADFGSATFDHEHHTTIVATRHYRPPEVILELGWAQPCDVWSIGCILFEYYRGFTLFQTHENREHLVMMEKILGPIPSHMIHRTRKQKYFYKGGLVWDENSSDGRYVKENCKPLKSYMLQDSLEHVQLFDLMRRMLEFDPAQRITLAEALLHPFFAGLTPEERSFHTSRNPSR
UniProt Q16566, sequence (whole entry, looked up): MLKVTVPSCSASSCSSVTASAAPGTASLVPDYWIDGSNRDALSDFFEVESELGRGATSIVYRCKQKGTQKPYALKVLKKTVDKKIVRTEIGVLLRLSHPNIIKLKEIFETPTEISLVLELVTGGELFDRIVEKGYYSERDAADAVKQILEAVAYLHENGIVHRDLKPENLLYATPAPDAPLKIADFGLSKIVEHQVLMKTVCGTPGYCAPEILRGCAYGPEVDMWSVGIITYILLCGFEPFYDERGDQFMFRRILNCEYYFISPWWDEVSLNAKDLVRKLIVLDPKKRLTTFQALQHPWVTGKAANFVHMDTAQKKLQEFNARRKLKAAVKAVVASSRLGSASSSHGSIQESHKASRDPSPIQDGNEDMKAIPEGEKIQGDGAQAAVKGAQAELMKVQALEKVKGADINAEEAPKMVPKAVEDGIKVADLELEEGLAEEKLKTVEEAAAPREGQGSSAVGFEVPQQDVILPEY

Sample 1 — read-out: enzyme activity; mode: inhibitor; tested at: 0.5 µM; reference: control; endpoint: remaining activity
Compound: N#Cc1cnc2cnc(NCc3cccnc3)cc2c1Nc1ccc(F)c(Cl)c1
target = CLK3 (Homo sapiens, UniProt P49761); result = 96.7%
target = CAMK4 (Homo sapiens, UniProt Q16566); result = 95.2%
target = Cyclin-dependent kinase 9, with cyclin K (CDK9, Homo sapiens, UniProt P50750); result = 97.3%
target = Myosin-IIIb (MYO3B, Homo sapiens, UniProt Q8WXR4); result = 87.9%
target = AKT2 (Homo sapiens, UniProt P31751); result = 101%
target = KDR (Homo sapiens, UniProt P35968); result = 96.3%
target = MAP2K1 (Homo sapiens, UniProt Q02750); result = 86.2%
target = MARK2 (Homo sapiens, UniProt Q7KZI7); result = 93.2%
target = NEK3 (Homo sapiens, UniProt P51956); result = 56%
target = PNCK (Homo sapiens, UniProt Q6P2M8); result = 99.8%
target = DCLK2 (Homo sapiens, UniProt Q8N568); result = 97.2%
target = TXK (Homo sapiens, UniProt P42681); result = 88.1%
target = MAPK1 (Homo sapiens, UniProt P28482); result = 105%
target = MAPK14 (Homo sapiens, UniProt Q16539); result = 115%

Sample 2 — endpoint: inhibition
SMILES: COc1cc(C(=O)N2CCC(N3CCN(C)CC3)CC2)ccc1Nc1ncc2c(n1)N(C)c1ccccc1C(=O)N2C
tested on = ZAP70 human; test = KiNativ profiling; system = human PBMC; conditions = 1 µM, DFG motif site, together with: ATP acyl phosphate probe; result = -4.7%
tested on = ABL and ARG (mouse); test = probe labelling, KiNativ, refers to: Lys1 site peptide; system = brain tissue lysate (mouse); conditions = 1 µM, together with: ATP acyl-phosphate probe; result = 14.2%
tested on = human PBMC; test = probe labeling, inhibitor, KiNativ profiling, refers to: DVkPSNVLINK; system = cell lysate; conditions = concentration not given, LYS2 site, together with: ATP acyl-phosphate probe; result = -7%
tested on = CDK5 (mouse); test = probe labelling, KiNativ, refers to: DLkPQNLLINR peptide, LYS2 site; system = brain tissue lysate (mouse); conditions = 1 µM, together with: ADP acyl-phosphate probe; result = 7.4%
tested on = SLK (mouse); test = probe labelling, inhibitor, KiNativ ActivX ADP probe; system = mouse brain lysate; conditions = 0.1 µM, Lys1 site peptide; result = 1.1%
tested on = mouse PKCι and PKCζ; test = probe labelling, KiNativ ADP probe; system = mouse brain lysate; conditions = 0.1 µM, LYS1 site IYAMkVVK; result = 4.9%
tested on = BRSK2 (mouse); test = probe labelling, KiNativ ATP probe; system = mouse brain lysate; conditions = 0.1 µM, LYS2 labelled site; result = -0.5%
tested on = RSKL1 domain 1 (mouse); test = probe labelling, inhibitor, KiNativ ActivX ATP probe; system = mouse brain lysate; conditions = 1 µM; result = 5.8%

Sample 3 — read-out: ligand displacement; tested at: 10 µM; endpoint: inhibition
Target: D(2) dopamine receptor (DRD2, Homo sapiens, UniProt P14416)
UniProt P14416, sequence (whole entry, looked up): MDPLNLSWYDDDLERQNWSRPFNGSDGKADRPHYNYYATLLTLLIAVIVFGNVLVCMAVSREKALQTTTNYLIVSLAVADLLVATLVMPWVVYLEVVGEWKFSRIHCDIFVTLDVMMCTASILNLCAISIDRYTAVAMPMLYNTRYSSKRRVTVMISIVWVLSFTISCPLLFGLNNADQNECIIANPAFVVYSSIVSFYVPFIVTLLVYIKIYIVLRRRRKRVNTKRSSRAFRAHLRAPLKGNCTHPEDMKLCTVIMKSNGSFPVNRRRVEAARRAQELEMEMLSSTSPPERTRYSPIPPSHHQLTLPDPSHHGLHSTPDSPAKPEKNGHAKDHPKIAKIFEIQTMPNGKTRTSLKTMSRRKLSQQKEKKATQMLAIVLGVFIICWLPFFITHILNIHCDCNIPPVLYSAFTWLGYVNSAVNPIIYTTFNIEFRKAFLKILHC
SMILES = Nc1nc(NCc2ccccc2)nc(-c2cccc(CO)c2)n1; result = -7.4%
SMILES = CC1=C(C#N)C(c2ccc3[nH]nc(C)c3c2)C(C#N)=C(C)N1; result = -7.07%
SMILES = CNC(=N)NCCC[C@H](NC(=O)[C@H](CC(C)C)NC(=O)NNC(=O)[C@H](Cc1ccccc1)NC(=O)[C@H](CO)NC(=O)[C@H](CC(N)=O)NC(=O)[C@@H](Cc1ccncc1)NC(=O)[C@H](N)Cc1ccc(O)cc1)C(=O)N[C@@H](Cc1ccccc1)C(N)=O; result = 0.859%
SMILES = COc1cc(C(=O)O)ncc1C#Cc1ccccc1NS(=O)(=O)c1cccc2c(N(C)C)ccnc12; result = -0.32%
SMILES = CN([C@@H]1CCc2c(CC(=O)O)c3ccccc3n2C1)S(=O)(=O)c1ccc(F)cc1; result = -31.4%
SMILES = COCCOc1nc(-c2ccc(Cl)nc2)nc2c1CN(C(=O)c1ncn3ccccc13)CC2; result = -32.5%
SMILES = O=C(NCCCC1CCCCC1)c1ccc(CNC(=O)c2cnn(-c3ccccc3)c2C(F)(F)F)cc1; result = 15.8%
SMILES = C[C@H](c1ccc(F)cc1)N(Cc1cccc(C(=O)O)c1)C(=O)c1cnc2ccccc2c1; result = 7.61%

Sample 4 — method: phase 2a clinical trial
Structure (SMILES): CC(C)n1cnc(-c2ccc(F)cc2)c1-c1ncc(C(=O)Nc2ccc(N3CCN(C)CC3)cc2)[nH]1
Host: patients with idiopathic pulmonary fibrosis
Endpoint: patients with treatment-emergent adverse events
refers to = drug-induced liver injury; dose = 30 mg once daily; notes = Grade 4; result = 0%
refers to = investigations (SOC); dose = 60 mg once daily; notes = Grade 4; result = 0%
refers to = electrocardiogram high voltage; dose = 60 mg once daily; notes = Grade 4; result = 0%
refers to = electrocardiogram T wave abnormal; dose = 60 mg once daily; notes = Grade 5; result = 0%
refers to = idiopathic pulmonary fibrosis; dose = 30 mg once daily; notes = Grade 1; result = 0%
refers to = protein urine present; dose = 60 mg once daily; notes = Grade 5; result = 0%
refers to = interstitial lung disease; dose = 60 mg once daily; notes = Grade 1; result = 0%

Some of these lines once more (sample 1):
target = DCLK2 (Homo sapiens, UniProt Q8N568); result = 97.2%
target = Myosin-IIIb (MYO3B, Homo sapiens, UniProt Q8WXR4); result = 87.9%
target = NEK3 (Homo sapiens, UniProt P51956); result = 56%
